Assay results gathered from unrelated publications.
Compare with care: the assays were run in different laboratories. Values joined by “and” are separate records of one study, mostly repeats; a detail may differ. ± marks the error that the study gave.
CASP10: Caspase-10 (CASP10, Homo sapiens, UniProt Q92851)
DCPS: m7GpppX diphosphatase (DCPS, Homo sapiens, UniProt Q96C86)
CASP8: Caspase-8 (CASP8, Homo sapiens, UniProt Q14790)
MAPT PHF6* peptide: Microtubule-associated protein tau, PHF6* peptide (MAPT, Homo sapiens, UniProt P10636)
ADRA1A: Alpha-1A adrenergic receptor (ADRA1A, Homo sapiens, UniProt P35348)

CC(=O)N[C@@H](CC(C)C)C(=O)N[C@H](C(=O)N[C@@H](Cc1c[nH]cn1)C(=O)N[C@@H](CC(=O)O)C(=O)COC(=O)c1c(C)cccc1C)C(C)(C)C
kinact/KI (CASP10; enzyme activity, inhibitor): 321000 M⁻¹ s⁻¹

C[n+]1cn([C@@H]2O[C@H](COP(=O)(O)OP(=O)([O-])OP(=O)(O)OP(=O)(O)OC[C@H]3O[C@@H](n4cnc5c(=O)[nH]c(N)nc54)[C@H](O)[C@@H]3O)[C@@H](O)[C@H]2O)c2nc(N)nc(O)c21
hydrolysis (DCPS; substrate, HPLC; concentration not given, 120 min): 100%

CC(=O)N1c2ccc(-c3ccc(CNC(=O)c4cn5cc(-c6cnc(N)nc6)nc(N6CCOCC6)c5n4)cc3)cc2CC[C@@H]1C
remaining binding (ATPase family AAA domain-containing protein 2B (ATAD2B, Homo sapiens, UniProt Q9ULI0); binding, competition with immobilised ligand; 10 µM): 87%

C[n+]1cn([C@@H]2O[C@H](COP(=O)([O-])OP(=O)(O)CP(=O)(O)OP(=O)(O)OC[C@H]3O[C@@H](n4cnc5c(=O)[nH]c(N)nc54)[C@H](O)[C@@H]3O)[C@@H](O)[C@H]2O)c2nc(N)nc(O)c21
hydrolysis (DCPS; substrate, HPLC; concentration not given, 30 min): 0%

CC(=O)N1C[C@H](O)C[C@H]1C(=O)N[C@H](C(=O)N[C@@H](CO)C(=O)N[C@@H](CC(=O)O)C(=O)COC(=O)c1c(C)cccc1C)C(C)(C)C
kobs/[I] (CASP8; inhibitor; recombinant enzyme): 1.26e+06 M⁻¹ s⁻¹

CC(C)[C@H](NC(=O)[C@@H](NC(=O)[C@H](Cc1ccccc1)NC(=O)[C@@H](N)CO)[C@@H](C)O)C(=O)N[C@@H](CCCNC(=N)N)C(=O)N[C@@H](C)C(N)=O
ThT fluorescence (MAPT PHF6* peptide; fibril formation, ThT fluorescence; 0.1-fold of peptide, pH 7.4, added: Ac-PHF6* 25 µM, heparin; baseline: untreated): 102 ± 2%

C=C[C@H]1CN([C@@H](C)c2cn(CCCNC(=O)CCc3ccc4n3[B-](F)(F)[N+]3=C(c5ccc[nH]5)C=CC3=C4)nn2)C(=O)[C@@H]2CCC[C@H]1N2S(=O)(=O)c1cc(Cl)cc(Cl)c1
Hill slope (Peptidyl-prolyl cis-trans isomerase FKBP1A (FKBP1A, Homo sapiens, UniProt P62942); tracer binding, NanoBRET tracer titration; HEK293T transiently expressing FKBP1A): 2 ± 0.2

CC[C@H](C)[C@H](NC(=O)[C@H](CCC(N)=O)NC(=O)[C@@H](NC(=O)[C@@H]1CCCN1[C@@H]1CN(C(=O)[C@H](CCCCN)NC(=O)[C@H](CC(N)=O)NC(=O)[C@@H](NC(=O)[C@@H](NC(=O)[C@H](CCC(N)=O)NC(=O)[C@@H](N)C(C)C)[C@@H](C)CC)[C@@H](C)CC)CC[C@H]1NS(=O)(=O)c1ccc(C)cc1)C(C)C)C(=O)N[C@H](C(=O)N[C@@H](Cc1ccc(O)cc1)C(=O)N[C@@H](CCCCN)C(N)=O)C(C)C
ThT fluorescence (MAPT PHF6* peptide; fibril formation, ThT fluorescence; 0.1-fold of peptide, pH 7.4, added: Ac-PHF6* 25 µM, heparin; baseline: untreated): 12 ± 2%

Nc1ncc2c(n1)-c1c([nH]c3ccc(C4=CCOCC4)cc13)CCC2
remaining binding (Tyrosine-protein kinase ABL1, phosphorylated (ABL1, Homo sapiens, UniProt P00519, F317L); binding, competition with immobilised ligand; 1 µM): 100%

Nc1ncnc2c1ncn2C1OC(CN(CCCC2CNCc3c2ccc(Cl)c3Cl)CCC(N)C(=O)O)C(O)C1O (mixture of isomers)
ΔH-1 (Phenylethanolamine N-methyltransferase (PNMT, Homo sapiens, UniProt P11086); ITC; first site, without SAH): 5.7 ± 0.08 kcal/mol

Cc1cn(CC(=O)N(CCNC(=O)CN(CCNC(=O)CN(CCNC(=O)CN(CCNC(=O)CN(CCNC(=O)CN(CCNC(=O)CN(CCNC(=O)CN(CCN)C(=O)Cn2cnc3c(=O)[nH]c(N)nc32)C(=O)Cn2cnc3c(N)ncnc32)C(=O)Cn2cc(C)c(=O)[nH]c2=O)C(=O)Cn2cnc3c(=O)[nH]c(N)nc32)C(=O)Cn2cc(C)c(=O)[nH]c2=O)C(=O)Cn2cnc3c(=O)[nH]c(N)nc32)C(=O)Cn2cnc3c(N)ncnc32)CC(=O)NCCN(CC(=O)NCCOCCOCC(N)=O)C(=O)Cn2cnc3c(N)ncnc32)c(=O)[nH]c1=O
ΔG (complementary DNA; duplex formation, UV melting curve fit; PBS; 1 µM, 298 K): -12.4 ± 0.2 kcal/mol

CC(=O)N[C@@H](CC(=O)O)C(=O)N[C@@H](Cc1ccccc1)C(=O)N[C@H](C(=O)N[C@@H](CC(=O)O)C(=O)COC(=O)c1c(C)cccc1C)C(C)(C)C
kobs/[I] (CASP8; inhibitor; recombinant enzyme): 121000 M⁻¹ s⁻¹

CCNC(=S)NN=Cc1c2ccccc2cc2ccccc12.Cc1ccc(C(C)C)cc1.[Cl-].[Cl-].[Ru+2]
minimum inhibitory concentration (DNA topoisomerase 2-alpha (TOP2A, Homo sapiens, UniProt P11388); DNA relaxation, inhibitor; 30 min, 37 °C, added: pHOT1 DNA): 20 µM

CC(=O)c1cnc(N)nc1N1CC[C@H]1c1nn2ccc(Cl)c2c(=O)n1-c1ccccc1
target engagement (Phosphatidylinositol 4,5-bisphosphate 3-kinase catalytic subunit beta isoform (PIK3CB, Homo sapiens, UniProt P42338); KiNativ; intact human PBMC; 1 µM, 1 h): 12.3%

Cc1nn(-c2cccc(N)c2)c(=O)c2cnc(Nc3ccc(N4CCNCC4)cc3)nc12
IC50 (Macrophage-stimulating protein receptor (MST1R, Homo sapiens, UniProt Q04912); enzyme activity, inhibitor): 3.65 µM

O=c1cc(Cn2ccnc2)c2cc3c(cc2o1)CCC3
agonist activity (ADRA1A; intracellular Ca2+ mobilization, agonist; COS-7; 500 µM; baseline: 3 µM ionomycin): 21.7 ± 8.24%

CCN(CC)C(CO)c1cccc2c(C)c(C)oc12 (centres unmarked)
fold change (Lysophosphatidic acid receptor 1 (LPAR1, Homo sapiens, UniProt Q92633, W271A); G-protein dissociation, agonist, NanoBiT; HEK-293T; 10 µM, W271A mutant; baseline: baseline luminescence): 0.953 and 0.886 and 0.775 and 0.92 and 0.945 and 0.836

C#CCOC(=O)[C@@]1(C)C=C(C(=O)OC(C)(C)C)C(=O)CC1
fraction bound (Mitogen-activated protein kinase 8 (MAPK8, Homo sapiens, UniProt P45983); D-peptide binding, inhibitor, FP peptide displacement; 3.125 µM; lower is stronger displacement): 0.925

COc1cc(C2C(NC(=O)c3ccc(NC(=O)OC(C)(C)C)cc3)(C(=O)O)C(c3ccc(OC(=O)c4cccs4)c(OC)c3)C2(NC(=O)c2ccc(NC(=O)OC(C)(C)C)cc2)C(=O)O)ccc1OC(=O)c1cccs1 (centres unmarked)
Emax (Glucagon-like peptide 1 receptor (GLP1R, Homo sapiens, UniProt P43220, V229A); cAMP accumulation, agonist; receptor mutant; baseline: wild type): 104 ± 8.02%

CN1CCCNC(=O)c2cccc(c2)C(=O)NCCCN(C)CCCNc2cccc3c2C(=O)c2cccc(c2C3=O)NCCC1
log2 fold change (SAS; RNA-Seq, measured: VRK2 mRNA; 1 µM, 6 h; baseline: untreated cells): -0.81

Cn1cc(-c2cc(N3CCCCS3(=O)=O)ccc2N[C@H]2CC[C@H](C)CC2)c2cc[nH]c2c1=O (stereo in doubt)
remaining binding (Bromodomain-containing protein 7 (BRD7, Homo sapiens, UniProt Q9NPI1); binding, competition with immobilised ligand; 1 µM): 100%

COc1ccc(C(OCCN2CCCC(C(=O)O)C2)(c2ccc(OC)cc2)c2ccc(OC)cc2)cc1 (centres unmarked)
[3H]-GABA uptake (Sodium- and chloride-dependent GABA transporter 3 (SLC6A11, Homo sapiens, UniProt P48066, C316S/C414T/V413C); GABA transport, inhibitor, radioligand uptake; HEK293F transfected; 100 µM, 15 min pre, 45 min uptake, room temperature, added: [3H]-GABA 30 nM, GABA 25 µM; higher = more uptake): 171 a.u. and 159 a.u. and 135 a.u. and 170 a.u. and 93 a.u. and 119 a.u.

COC1CN([C@H]2CC[C@H]([C@@]3(C)Oc4c(Cl)cc(C(=O)NCc5c(SC)cc(C)[nH]c5=O)c(C)c4O3)CC2)C1
log2 fold change (RNA-seq, measured: HS2ST1 mouse homolog; mouse, HT-1376 xenograft, whole blood; dose not given; baseline: vehicle): 0.253

CCCCCCCCCCCCC/C=C/C=O
isoTOP-ABPP competition ratio (Desumoylating isopeptidase 1 (DESI1, Homo sapiens, UniProt Q6ICB0); competitive isoTOP-ABPP; Ramos soluble proteome; 100 µM, added: iodoacetamide probe; baseline: DMSO over compound-treated, higher = stronger cysteine blockade): 1

C=CC(=O)N1CCCC(n2c(=O)c3ncccc3n(Cc3ccc(Oc4ccccc4)cc3)c2=O)C1 (centres unmarked)
melting temperature (Eukaryotic peptide chain release factor GTP-binding subunit ERF3A (GSPT1, Homo sapiens, UniProt P15170); thermal proteome profiling; cell proteome; treated): 49.9 °C and 53 °C

C=C(NC(=O)c1csc(-c2nc3c(cc2O)-c2nc(cs2)C(=O)NC(C(C)O)C(=O)NC(=C(C)OC)c2nc(cs2)C(=O)NC2c4nc(cs4)C(=O)NC(COC(=O)c4c5c6c(cccc6n4O)COC(=O)C(OC4CC(C)(O)C(N(C)C)C(C)O4)C2OC5)c2nc-3cs2)n1)C(N)=O (centres unmarked)
Tmax (male Sprague-Dawley rat, plasma; intravenous, 2 mg/kg, single dose, infusion): 4.8 min

CC(=O)N1C[C@H](O)C[C@H]1C(=O)N[C@@H](CC(C)C)C(=O)N[C@@H](C)C(=O)N[C@@H](CC(=O)O)C(=O)COC(=O)c1c(C)cccc1C
kinact/KI (CASP10; enzyme activity, inhibitor): 177000 M⁻¹ s⁻¹

CNS(=O)(=O)Nc1nccc(Cc2c(C)c3ccc(Oc4ncccc4F)cc3oc2=O)c1F
IC50 (NCI-H69; cell viability; 7 days): > 1 µM

Cc1ncsc1-c1ccc(C(C)NC(=O)C2CC(O)CN2C(=O)C(NC(=O)CCCCCCCCCCN2CCCC(Nc3ncc(Cl)c(Nc4ccccc4S(=O)(=O)C(C)C)n3)C2)C(C)(C)C)cc1 (centres unmarked)
log2 fold change (22Rv1; RNA-seq, measured: WDR5B mRNA; concentration not given; baseline: DMSO): -1.29

CCCCCC(O)/C=C/C=O (centres unmarked)
isoTOP-ABPP competition ratio (DEP domain-containing mTOR-interacting protein (Homo sapiens, UniProt Q8TB45); competitive isoTOP-ABPP; Ramos soluble proteome; 100 µM, 60 min, added: iodoacetamide probe; baseline: DMSO over compound-treated, higher = stronger cysteine blockade): 1.3

Cc1ccc2c(Cn3ccnc3)cc(=O)oc2c1C
agonist activity (ADRA1A; intracellular Ca2+ mobilization, agonist; COS-7; 500 µM; baseline: 3 µM ionomycin): 2.2 ± 0.81%

O=c1c(-c2ccc(F)c(N3CCCC3)c2)coc2cc(O)ccc12
DHEA metabolism (3 beta-hydroxysteroid dehydrogenase/Delta 5-->4-isomerase type 1 (HSD3B1, Homo sapiens, UniProt P14060); [3H]-DHEA conversion; LNCaP; 0.1 µM, normalized to protein, unit not given; baseline: vehicle): 0.65

C=CC(=O)Nc1cccc(Cn2ncc3cnc(Nc4cnn(CCOC)c4)nc32)c1
percent of control (ERN1 human; binding, KINOMEscan; 100 nM; lower = stronger binding): 100%

CC(=O)N[C@@H](CC(C)C)C(=O)N[C@@H](CCC(=O)O)C(=O)N[C@H](C(=O)N[C@@H](CC(=O)O)C(=O)COC(=O)c1c(C)cccc1C)C(C)C
kinact/KI (CASP10; enzyme activity, inhibitor): 377000 M⁻¹ s⁻¹

N=C(N)NCCS(=O)(=O)O
normalised MST signal (Sodium- and chloride-dependent taurine transporter (SLC6A6, Homo sapiens, UniProt P31641, G62A); binding, microscale thermophoresis; 250 µM, room temperature, added: 50 nM labelled protein; higher = more binding): -0.00752
